Measurements of several laboratories.
Lines come from different studies, so protocols differ.
Cell line: BV-2
Effect on: NO release
Method: Griess

Compound	assay	conditions	quantity	value
C#CCOc1ccc(/C=C/C(=O)N2CCc3ccccc3C2)cc1OC	inhibitor	10 µM, LPS-stimulated	inhibition	57.3%
COc1cc(O)c2c(c1)O[C@H](c1ccc(O)cc1)CC2=O	–	24 h, together with: LPS 10 µg/mL	IC50	87.1 µM
COc1cc2c(ccc3cc(OC)c(O)c(OC)c32)cc1O	inhibitor	LPS-stimulated	IC50	> 20 µM
COc1cc(/C=C/C(=O)N2CCc3ccccc3C2)ccc1OC1CCCCC1	inhibitor	5 µM, LPS-stimulated	inhibition	40.4%
O=Cc1ccc(O)cc1	inhibitor	LPS-stimulated	IC50	> 20 µM
C#CCOc1ccc(/C=C/C(=O)N2CCC(Cc3ccccc3)CC2)cc1OC	inhibitor	10 µM, LPS-stimulated	inhibition	55.7%
COc1cc(/C=C/C(=O)c2ccc(OC)c(OC)c2O)cc(OC)c1OC	inhibitor	24 h, LPS-stimulated	IC50	1.1 µM
COc1cc(O)cc2c1-c1c(O)cccc1CC2	inhibitor	LPS-stimulated	IC50	> 20 µM
COc1cc(O)c2c(=O)c(O)c(-c3ccc(O)c(O)c3)oc2c1	inhibitor	LPS-stimulated	IC50	26.3 µM

For quick reference, copied from above:
Compound	assay	conditions	quantity	value
COc1cc(O)c2c(=O)c(O)c(-c3ccc(O)c(O)c3)oc2c1	inhibitor	LPS-stimulated	IC50	26.3 µM
